Published values collected from several papers.
Every numbered part comes from another study and shows a few of its results, in no order.

Block 1 — method: universal PBM; molecule type: double-stranded DNA, one strand shown; matrix: in vitro; concentration: 600 nM; direction: higher = stronger binding
Target: Sal-like protein 4, full length isoform A (SALL4, Homo sapiens, UniProt Q9UJQ4, residues 1-1053)
UniProt Q9UJQ4, sequence (whole entry, looked up): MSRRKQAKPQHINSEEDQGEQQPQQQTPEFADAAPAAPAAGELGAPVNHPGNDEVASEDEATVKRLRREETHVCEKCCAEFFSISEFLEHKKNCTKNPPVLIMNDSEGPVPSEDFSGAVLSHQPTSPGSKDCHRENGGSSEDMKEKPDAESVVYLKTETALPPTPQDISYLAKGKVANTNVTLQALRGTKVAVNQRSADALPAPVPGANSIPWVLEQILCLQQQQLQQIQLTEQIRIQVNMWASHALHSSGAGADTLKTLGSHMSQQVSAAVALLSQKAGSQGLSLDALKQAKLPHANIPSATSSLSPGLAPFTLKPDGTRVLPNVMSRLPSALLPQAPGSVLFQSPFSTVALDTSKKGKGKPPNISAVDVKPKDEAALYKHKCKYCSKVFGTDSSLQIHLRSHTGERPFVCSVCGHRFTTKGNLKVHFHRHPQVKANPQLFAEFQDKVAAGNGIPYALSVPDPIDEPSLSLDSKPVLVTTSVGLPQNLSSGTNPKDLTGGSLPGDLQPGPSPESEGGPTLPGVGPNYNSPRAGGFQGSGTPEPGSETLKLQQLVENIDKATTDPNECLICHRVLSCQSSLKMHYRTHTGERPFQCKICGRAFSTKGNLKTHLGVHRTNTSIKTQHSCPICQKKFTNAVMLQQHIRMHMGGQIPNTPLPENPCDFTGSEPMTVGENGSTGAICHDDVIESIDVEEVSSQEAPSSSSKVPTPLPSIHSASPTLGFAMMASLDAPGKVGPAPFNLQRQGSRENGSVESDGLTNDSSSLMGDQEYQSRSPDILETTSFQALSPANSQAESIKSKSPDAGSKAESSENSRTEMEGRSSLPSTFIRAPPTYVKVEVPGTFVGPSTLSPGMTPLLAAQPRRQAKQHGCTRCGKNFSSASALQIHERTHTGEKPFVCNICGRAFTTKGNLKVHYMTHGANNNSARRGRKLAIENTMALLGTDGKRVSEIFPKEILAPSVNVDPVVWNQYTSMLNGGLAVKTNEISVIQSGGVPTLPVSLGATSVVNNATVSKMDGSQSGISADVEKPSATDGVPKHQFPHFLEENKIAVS
Setting: 8-mer, flanks averaged, mean of replicates
Sequence | E-score
ACGGTACT | -0.033
ACATCCGC | -0.114
TGATGAAA | 0.141
GTCGCGGA | -0.344
AGTTCCCC | -0.218
GATCGTGC | -0.0611
CACAGCCA | -0.233
CGTTTACA | 0.146
CCAAGAAA | 0.117
CAGATTAA | 0.192
CGTCAGTA | 0.00666
ACCCTCGA | -0.207
CCTCGTCA | 0.0207
CTGAGAAG | -0.169
ACCGTCGG | -0.32
CGACTAAG | -0.118
CAGCTAGC | -0.239
CGTGCCCC | -0.326
GACACGAA | -0.168
GGATCTGA | -0.0939
CGAAGCAC | -0.137
GGAGGTTA | -0.0174
AATCGGGC | -0.117
AATACCGT | 0.0852

Block 2 — method: RNAcompete; molecule type: RNA; matrix: in vitro; concentration: 20 nM; setting: 7-mer, probes averaged, single round; baseline: mean of 7-mers; direction: higher = stronger binding
Target: PABPC1L2, full length, GST fusion (mouse, UniProt A0ABA7IW68)
Residues (chain): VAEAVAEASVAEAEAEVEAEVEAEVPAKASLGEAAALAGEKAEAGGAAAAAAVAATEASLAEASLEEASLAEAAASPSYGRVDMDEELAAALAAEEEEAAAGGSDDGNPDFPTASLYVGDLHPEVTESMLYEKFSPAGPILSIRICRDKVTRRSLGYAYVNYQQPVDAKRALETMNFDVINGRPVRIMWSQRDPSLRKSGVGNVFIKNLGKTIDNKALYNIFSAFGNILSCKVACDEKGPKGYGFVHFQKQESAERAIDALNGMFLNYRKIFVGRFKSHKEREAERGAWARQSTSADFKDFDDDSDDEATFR
Sequence | 7-mer Z-score
GAGAUUA | 0.0678
CUUGCCU | -0.249
UAUCCAA | -0.146
ACGCAUA | -0.0482
UUGACGU | -0.302
CUCCUAG | -0.371
UAUCGUC | -0.304
GGGCUAG | 0.26
UUUACCA | -0.224
GACGAUC | -0.162
UGUAGUC | -0.322
UGGAGCU | -0.021
AAUGACG | 0.186
AAAGUGC | 1.5
GCUUGCA | -0.155
GGAAUUU | -0.112
UUCACUA | -0.229
CCCCGUA | -0.365
AUCACUC | -0.137
AAUGGGG | 0.541
UUAUUAG | -0.117

Block 3 — method: protein binding microarray; molecule type: double-stranded DNA, one strand shown; matrix: in vitro; concentration: not given; baseline: not given; direction: higher = stronger binding
Target: Histone acetyltransferase KAT6A, winged helix 1, GST fusion (KAT6A, Homo sapiens, UniProt Q92794, residues 1-85)
Setting: 8-mer, flanks averaged, mean of 2 arrays, mostly near background
Residues (chain): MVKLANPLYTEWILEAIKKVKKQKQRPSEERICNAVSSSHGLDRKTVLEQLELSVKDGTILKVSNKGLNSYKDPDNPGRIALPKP
Sequence | E-score
AACTCACA | -0.268
CGTGGTAC | 0.0251
AAGGGACT | -0.144
AAAGGGAG | -0.123
AACCACCG | 0.0977
AAGGCCAG | -0.0756
ATTGTGAA | -0.0756
GGTATCAC | -0.0474
GCACCGTA | 0.292
ACCTGCGA | -0.033
GGTACCAA | -0.0293
GATGCAGC | -0.0617
CGGGTTCC | 0.342
CAGGGTTA | -0.104
AACAGCAC | -0.0461
GATCCAGA | -0.158
CGGCTGCC | 0.268

Block 4 — method: RNA Bind-n-Seq; molecule type: RNA; matrix: in vitro; concentration: not given; baseline: input RNA pool; direction: higher = stronger binding
Target: RING finger protein unkempt homolog, zinc fingers 1-6, GST-SBP tag (UNK, Homo sapiens, UniProt Q9C0B0, residues 30-357)
Setting: RNA with constant flanks, human and mouse sites, ends assumed
Construct (chain): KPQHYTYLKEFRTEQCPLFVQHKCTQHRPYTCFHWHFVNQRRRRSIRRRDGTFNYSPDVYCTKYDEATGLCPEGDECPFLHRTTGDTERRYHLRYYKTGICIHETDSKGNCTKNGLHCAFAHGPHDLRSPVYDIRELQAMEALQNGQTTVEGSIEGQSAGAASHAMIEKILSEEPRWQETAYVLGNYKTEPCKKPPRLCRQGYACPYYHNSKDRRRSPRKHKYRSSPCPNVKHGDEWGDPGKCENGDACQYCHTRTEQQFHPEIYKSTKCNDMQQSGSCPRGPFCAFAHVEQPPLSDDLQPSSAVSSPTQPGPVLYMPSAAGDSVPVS
Sequence | bound/input enrichment [ratio]
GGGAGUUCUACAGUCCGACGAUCUUUGAGUCACUGCAAAAGAAAACCAAGAUUGCACUGGAACAUCCCAUGUUAACAGAUAUUCAUGACAAGCUGGUGUUGAAGGGUGAUUUUGAUGCUUGCGAAGAGUUGAUUGAAAAGGCUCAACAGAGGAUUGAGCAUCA | 0.238
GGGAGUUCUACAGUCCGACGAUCGGUGUUGCGAGUAUAGGAGGCAAAAUUGCACCCUGUUGAAAACCACCACCUUAGAUCAUCUAGGUUUUACUUUUAGGAUAAGACACUUGAGGGAAAGGCUGUGAAACUGAACCUCUGUUACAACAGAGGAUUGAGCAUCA | 1.78
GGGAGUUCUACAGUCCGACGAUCAUUGGCCCCAACUUCCAGCUGGGCUUAAAGGAUGGCAUCAUCCUCUGCGAACUUAUAAACAAGCUACAGCCAGGCUCAGUGAAGAAGGUCAACGAGUCCUCACUGAACUGGCCUCAGUUGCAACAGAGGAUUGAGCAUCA | 0.174
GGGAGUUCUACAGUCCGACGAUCUAGCUUUAUGAAUUGCUUUGGUUUCUGUUUUUGCAUACUCUCAAUUUCUUUGAACCCCACCCCCACCCCACCCCCACUUACAUGCAUGCGAUCAGACAGGCCACUAAGGUAGAUUCUGCACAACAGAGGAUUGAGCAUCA | 1.32
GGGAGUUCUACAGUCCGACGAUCUACAGGCAAAGUUGAAUCUUCUGUCUUCCUGGCAAAAAAUGGCAUAAAAACUGAGUUGCUAGCUCAAAUUCCUGGGUUUCAUGGAAUUAUGAUUGAGGCACUACCCUGGUAGUGGCCGUUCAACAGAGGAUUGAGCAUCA | 0.265
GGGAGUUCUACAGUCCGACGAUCUCAAGUAGAUGUUUUUCUGUUAUGUAAGCAAUAAUUUUUCCGUGUCUUAUUGAGUAUGGCUAGCGAUUAUUUAUUACAUGCUAGAUGGGUUCUUUGCAUGUGGGUUCCAUAUAGGUGCAGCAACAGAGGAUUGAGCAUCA | 0.578
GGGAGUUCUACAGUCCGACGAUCUUGUCUAGCAAAUAAAAGAUGUUAAUAUAUUCCUGUUACUGGCAUGUGCACGACUAUGUUAUUAGAAGCCACUUUAUCAUUUUCCUGCUUUAAAUAGAAAUGUCUAUUUAUGAAUUCUGCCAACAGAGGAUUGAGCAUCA | 2.27
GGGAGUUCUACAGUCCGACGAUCUAUUUAAGCAAGCAAGAAUUCUCCAGUGAUGAAGAAAUAAAGAAACAGCAGUCCCCAAAGGAUAAACUAAAUAAUAAAUUAAAAGAGAAUGAGAAUAUGAUGGAAGGUAACUUACCGAAGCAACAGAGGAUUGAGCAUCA | 3.06
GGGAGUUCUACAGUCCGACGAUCUUUUAUAUCAAACAAAAGAAAGCUAGACCUUCCGUCAAAGAAACUCUUCAGAAGUCUGGUGUUAGGAAAGAGUUUCCAAUUACUGAGGCAGUAGGAUCUGAUAAGACAAAUAGGCAUCCCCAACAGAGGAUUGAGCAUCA | 1.18
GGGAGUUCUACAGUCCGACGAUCGUAGAAUUUAUUUUGUCUUUUAUUGAUCACAUUGCUGGAGAUGAGGAUCAUACGGACGGAGUGGUAGCCUGUGCUGCUGGUCUGAUAGGGGACUUGUGUACAGCCUUCGGGAAGGAUGUACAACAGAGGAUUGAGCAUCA | 1.9
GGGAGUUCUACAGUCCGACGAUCAUGAAAAGACUAAUUGGAUGAAGACUCUCUCUCUGUAAUGAGUUUGUUGUUAAAUAUACAGUAGUUAUGGAAUGAAAAUGAAUACUUUGUCCCAGGCUCCUGGAUACGUUGCAUUUGGCUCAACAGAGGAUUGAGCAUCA | 0.0573

Block 5 — method: RNA Bind-n-Seq; molecule type: RNA; matrix: in vitro; concentration: 20 nM; setting: 6-mer, flanks averaged, single round; added: 150 mM LiCl; baseline: input library; direction: higher = stronger binding
Target: TAR DNA-binding protein 43, full length, His tag (TARDBP, Homo sapiens, UniProt Q13148, residues 1-414)
Sequence | 6-mer enrichment (R)
GAUGAC | 0.888
AGGUAG | 1.07
AUCUUC | 0.842
UCUGGG | 1.02
UAUAAU | 1.11
GAUCCA | 0.833
CGCACG | 0.88
GCUGGC | 0.991
CAUUGC | 0.893
CCAUAC | 0.88
UGCGGG | 1.21
CGUCGA | 0.938
UAAAAC | 0.869
AUCUGG | 0.883
UGGACG | 1.03
GGGAUA | 1.01
AACUCU | 0.914
AGCCGC | 0.931
UUGGUC | 0.985
CUUCCA | 0.862
CGUUAU | 0.954
UUCCUU | 1.02
CCUGAU | 0.882

Block 6 — method: protein-binding microarray; molecule type: double-stranded DNA, one strand shown; matrix: in vitro; concentration: 2540 nM top; setting: 60-bp whole probe; added: salmon DNA 0.4 mg/ml; baseline: random background probes; direction: higher = stronger binding; all sequences stand within: GCCTAGCAC … GTCTTGATTCGCTTGACGCTGCTG
Target: Interferon regulatory factor 3, full length, phosphomimetic (IRF3, Homo sapiens, UniProt Q14653, residues 1-427, S386D/S396D/S398D/S402D/T404D/S405D)
Construct (chain): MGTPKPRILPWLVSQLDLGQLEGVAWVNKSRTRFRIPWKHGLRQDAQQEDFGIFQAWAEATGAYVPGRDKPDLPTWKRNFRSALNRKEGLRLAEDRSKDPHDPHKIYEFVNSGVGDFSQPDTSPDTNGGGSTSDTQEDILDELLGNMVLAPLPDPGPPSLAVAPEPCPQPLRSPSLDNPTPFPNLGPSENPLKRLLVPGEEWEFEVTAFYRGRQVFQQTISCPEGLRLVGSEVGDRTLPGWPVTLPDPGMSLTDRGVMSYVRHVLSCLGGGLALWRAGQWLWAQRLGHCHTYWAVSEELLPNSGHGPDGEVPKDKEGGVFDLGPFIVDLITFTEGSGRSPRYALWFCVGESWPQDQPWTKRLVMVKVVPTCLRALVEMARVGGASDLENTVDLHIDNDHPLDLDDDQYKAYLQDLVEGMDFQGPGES
Sequence | fitted relative affinity
GGCGATATCGGGTATCGAGACGTGCTA | -0.0723 z-score
GACGATCTCAGTCTTGAGACGTGCTAG | 0.697 z-score
TCACCTCTAGGTCTTCTACTGTGCTAG | 0.0309 z-score
TTCCTTCTGCCTGTCCATTCGTGCTAG | 0.761 z-score
TCAATTTTCCCCTACTGACTGTGCTAG | 1.68 z-score
GACGGTAACGGGTATCGGGACGTGCTA | -0.124 z-score
GACGGTTTCGATTCCGGGACGTGCTAG | 8.22 z-score
GACAATATCAGACTGGAGACGTGCTAG | 0.283 z-score
GCCGGTTTCCTACTGCTGACGTGCTAG | 5.48 z-score
TTAGATTTCGGGTATCGATCAGTGCTA | 1.36 z-score
GACGATTTCGGGTATCGAGAAGTGCTA | 1.76 z-score
TTAGGTATCTACTTTCGGTTAGTGCTA | 2.41 z-score
CTTCCCCTCTAGGTTCTCTGAGTGCTA | 1.33 z-score
TTAGGACTGCTTCTCTTTTAGTGCTAG | 0.346 z-score
TCAAGCCTCCATTTTTAACTGTGCTAG | -0.182 z-score
TTAGGTTTCGACGATCGGTTAGTGCTA | 1.26 z-score
TCAGCTCACGCTTTGGAACTGTGCTAG | -0.39 z-score
GAATGAATGGACATTTCTTCGTGCTAG | 0.671 z-score
TGAGGTTTCCTTTTCCTTTAGTGCTAG | 11.9 z-score
ATATATATATTGTTAGTGTAGTGCTAG | 0.589 z-score
GACGGTATCGGTCTCGGAACGTGCTAG | 4.73 z-score
TCACCTATAGGTTTCTAACTGTGCTAG | 0.969 z-score
